# Literature values, collected from citations in different studies.
# Each numbered part shows a few of the values that one paper quotes. “And” joins repeats or separate records; there may be more than shown.

# Series 1
# SMILES: C=CC(=O)N1CCN(c2ncnc3c(F)c(-c4c(O)cccc4F)c(Cl)cc23)CC1
# Cell line: MIA PaCa-2
# Item: phospho-ERK
concentration,ERK phosphorylation
13.7 nM,102% and 104%
1.11 µM,36.9% and 31.4%
4.6 nM,101% and 98.9%
1.5 nM,101% and 102%
370 nM,60.1% and 72.2%

# Series 2
# Organism: Toxoplasma gondii
# Concentration: concentration not given
SMILES,activity
CNCCCC12CCC(c3ccccc31)c1ccccc12,inactive
CN/C(=N/CCSCc1nc[nH]c1C)NC#N,inactive
Clc1ccc2nsnc2c1NC1=NCCN1,inactive
Nc1c2c(nc3ccccc13)CCCC2,inactive
Cc1cccc(C)c1OCC(C)N (centres unmarked),inactive
CC(C)NCC(O)COc1ccc(CCOCC2CC2)cc1 (centres unmarked),inactive
COc1ccc2cc([C@H](C)C(=O)O)ccc2c1,inactive

# Series 3
# Structure (SMILES): CCCCCCCCNC(C)C(O)c1ccc(SC(C)C)cc1 (centres unmarked)
# Cell line: MCF7
# Concentration: concentration not given
technique,item,time,baseline,fold change
"microarray, Connectivity Map",BHLHE40 mRNA,6 h,DMSO,2.92
microarray,CALHM2 mRNA (probe 57715_at),,vehicle (DMSO),1.4
microarray,SQSTM1 mRNA,,DMSO,1.66
"microarray, Connectivity Map",MAFF mRNA,6 h,DMSO,14

# Mixed results
Structure (SMILES),target,technique,quantity,value
CC(=O)Nc1c(C(C)=O)c(=O)n(C)c2nc(-c3ccc(Cl)cc3Cl)c(-c3ccc(Cl)cc3)cc12,ADRA2C,MSD Pharma Taiwan panel screen,Ki,1.13 µM
CNC(=O)c1ccc(Nc2ncc(C(F)(F)F)c(NCc3nccnc3N(C)S(C)(=O)=O)n2)cc1,LYN,Cerep selectivity panel,IC50,1.1 µM
Cc1ncc(-c2cc(Cl)ccc2F)cc1-n1c(=O)n(CC(N)=O)c2ccccc21,TGFBR1,cell-based,IC50,> 10 µM
O=C(NCc1ncc(C(F)(F)F)cc1Cl)c1ccc2c(c1)C1(CCS(=O)(=O)CC1)[C@@H](C1CC1)N2S(=O)(=O)c1ccc(F)cc1,cannabinoid receptor CB1,radioligand binding,IC50,3.44 µM

# Repeated from above (series 1):
concentration,ERK phosphorylation
1.11 µM,36.9% and 31.4%
4.6 nM,101% and 98.9%
